Literature values that unrelated publications cite.
Each line is one published result; not all experiments were run side by side. Numbers after ± are the reported error.
B1: CCL1; sequence looked up; chain KSMQVPFSRCCFSFAEQEIPLRAILCYRNTSSICSNEGLIFKLKRGKEACALDTVGWVQRHRKMLRHCPSKRK

The half-life of `teicoplanin` is reported as 44.1 h (healthy human subjects).
`AAEQNPIYWARYADWLFTTPLLLLDLALLVDADEGTCG`: “pH50 of membrane insertion” ~6.1 (peptide, POPC membrane).
`LHQLAFDTYQEFEEAYIPK` — result for “retention coefficient S”: 27.6 (isocratic RP-HPLC, C18 column; peptide, water/acetonitrile, 0.1% TFA; 25 °C).
The stability time of `colistin` is reported as 60 days (aqueous solution; 4 °C).
Under “retention coefficient S”, `TGQIFK` is recorded as 14.2 (isocratic RP-HPLC, C18 column; peptide, water/acetonitrile, 0.1% TFA; 25 °C).
The MIC of `AMTSRKRKFVWYVLSSSLKWLIKKAKKIGVQVCGFE` is reported as 3 µM (Pseudomonas aeruginosa; peptide, ATCC 15692).
`[18F]AlF-NOTA-octreotide`: “remaining intact compound” 97.9 ± 1.1% (human plasma; 1 h).
With `pyridoxine` the pKa was 8.97 (basic).
`KQKTLKKVWKLSEKVLIFASAFAKKAGAAEATLVL` gave an MIC of 2 µM (Staphylococcus aureus; peptide, ATCC 6538).
`DWLKAFYDKVAEKLKEAF` has a surface pressure of 30 dyn/cm (peptide, egg PC-water interface; lipid affinity).
Under “retention coefficient S”, `LAGSASADAFR` is recorded as 19.5 (isocratic RP-HPLC, C18 column; peptide, water/acetonitrile, 0.1% TFA; 25 °C).
The half-life of `octreotide` is reported as ~2.5 h (oral, concentration not given).
With `teicoplanin` the oral bioavailability was < 1% (human; oral).
For `coproporphyrin I`, “AUC fold increase” read 2.7 fold (OATP1B1; monkey; dose not given, with: rifampicin; relative to: without rifampicin).
The Cmax of `pegcetacoplan` is reported as 931 µg/mL (cynomolgus monkey; 7 mg/kg, NOAEL dose, arithmetic mean).
For `KDMDKVETFLR`, “retention coefficient S” read 16.8 (isocratic RP-HPLC, C18 column; peptide, water/acetonitrile, 0.1% TFA; 25 °C).
`coproporphyrin III`: “AUC fold increase” 3.3 fold (OATP1B1; human; dose not given, with: rifampicin; relative to: without rifampicin).
`B1 (CCL1)` has an EC50 of 1.6 nM (CCR8 S110A mutant; IP accumulation, agonist).
`semaglutide` gave a half-life of ~10 h (rat).
`DLEEGIQTLMGR` — result for “retention coefficient S”: 22.7 (isocratic RP-HPLC, C18 column; peptide, water/acetonitrile, 0.1% TFA; 25 °C).
With `ivermectin` the logD was 6.61.

For quick reference, copied from above:
`B1 (CCL1)` has an EC50 of 1.6 nM (CCR8 S110A mutant; IP accumulation, agonist).
`semaglutide` gave a half-life of ~10 h (rat).
`DLEEGIQTLMGR` — result for “retention coefficient S”: 22.7 (isocratic RP-HPLC, C18 column; peptide, water/acetonitrile, 0.1% TFA; 25 °C).
